Measured values of several laboratories.
Lines come from different studies, so protocols differ. Several values in a cell are separate wells, animals, samples, runs or records. Numbers after ± are the reported error.
Target: PA-I galactophilic lectin (lecA, Pseudomonas aeruginosa, UniProt Q05097)
Effect on: binding
Residues used in one study (Q05097 1-122): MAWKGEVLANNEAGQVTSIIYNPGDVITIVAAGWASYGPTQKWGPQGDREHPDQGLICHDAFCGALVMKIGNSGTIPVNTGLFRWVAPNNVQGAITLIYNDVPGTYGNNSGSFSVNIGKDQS

SMILES | technique | pH | Kd
COCCOCCOc1cc(-c2cn([C@H]3[C@H](O)[C@@H](O)[C@H](n4cc(-c5ccc(O[C@@H]6O[C@H](CO)[C@H](O)[C@H](O)[C@H]6O)cc5)nn4)O[C@@H]3CO)nn2)c(OCCOCCOC)cc1-c1cn([C@H]2[C@H](O)[C@@H](O)[C@H](n3cc(-c4ccc(O[C@@H]5O[C@H](CO)[C@H](O)[C@H](O)[C@H]5O)cc4)nn3)O[C@@H]2CO)nn1 | ITC | – | 61 nM
O=C(O)[C@H]1O[C@@H](c2cn([C@H]3[C@H](O)[C@@H](O)[C@H](n4cc([C@@H]5O[C@H](C(=O)O)[C@@H](n6cc(CO[C@@H]7O[C@H](CO)[C@H](O)[C@H](O)[C@H]7O)nn6)[C@H](O)[C@H]5O)nn4)O[C@@H]3CO)nn2)[C@H](O)[C@@H](O)[C@@H]1n1cc(CO[C@@H]2O[C@H](CO)[C@H](O)[C@H](O)[C@H]2O)nn1 | ITC | – | 68 nM
OC[C@H]1O[C@@H](OCc2cn([C@@H]3O[C@H](CO)[C@@H](n4cc(-c5ccc(-c6cn([C@H]7[C@H](O)[C@@H](O)[C@H](n8cc(CO[C@@H]9O[C@H](CO)[C@H](O)[C@H](O)[C@H]9O)nn8)O[C@@H]7CO)nn6)cc5)nn4)[C@H](O)[C@H]3O)nn2)[C@H](O)[C@@H](O)[C@H]1O | cyclic voltammetry sensor | – | 13 ± 5 nM
O=C(COCCCCc1ccccc1)N[C@@H](Cc1cn(CCNC(=O)c2ccc(S[C@@H]3O[C@H](CO)[C@H](O)[C@H](O)[C@H]3O)cc2)nn1)C(=O)NCCO | ITC | – | 6700 nM
OC[C@H]1O[C@@H](OCc2cn([C@H]3[C@H](O)[C@@H](O)[C@H](c4cn([C@H]5[C@H](O)[C@@H](O)[C@H](n6cc([C@@H]7O[C@H](C[n+]8ccccc8)[C@@H](n8cc(CO[C@@H]9O[C@H](CO)[C@H](O)[C@H](O)[C@H]9O)nn8)[C@H](O)[C@H]7O)nn6)O[C@@H]5CO)nn4)O[C@@H]3C[n+]3ccccc3)nn2)[C@H](O)[C@@H](O)[C@H]1O | ITC | – | 89 nM
C#Cc1ccc(O[C@@H]2O[C@H](CO)[C@H](O)[C@H](O)[C@H]2O)cc1 | ITC | pH 7.5 | 8400 nM
CC(C)C[C@H](NC(=O)[C@@H]1CCCN1C(=O)[C@H](CCCCN)NC(=O)c1ccc(O[C@@H]2O[C@H](CO)[C@H](O)[C@H](O)[C@H]2O)cc1)C(N)=O | ITC | pH 7.5 | 3000 nM
[N-]=[N+]=NCCNC(=O)c1ccc(S[C@@H]2O[C@H](CO)[C@H](O)[C@H](O)[C@H]2O)cc1 | ITC | – | 4800 nM
OC[C@H]1O[C@@H](OCc2cn([C@@H]3O[C@H](CO)[C@@H](n4cc(-c5ccc(-c6cn([C@H]7[C@H](O)[C@@H](O)[C@H](n8cc(CO[C@@H]9O[C@H](CO)[C@H](O)[C@H](O)[C@H]9O)nn8)O[C@@H]7CO)nn6)cc5)nn4)[C@H](O)[C@H]3O)nn2)[C@H](O)[C@@H](O)[C@H]1O | ITC | pH 7.5 | 12 nM and 12 to 13 nM
O=C(COCCCc1ccccc1)N[C@@H](Cc1cn(CCNC(=O)c2ccc(S[C@@H]3O[C@H](CO)[C@H](O)[C@H](O)[C@H]3O)cc2)nn1)C(=O)NCCO | ITC | – | 8600 nM
OC[C@H]1OC(O)[C@H](O)[C@@H](O)[C@H]1O (some centres unmarked) | cyclic voltammetry sensor | – | 67000 ± 26000 nM
